Results pooled from the literature.
Protocols differ between the studies behind these lines. Numbers after ± are the reported error. In brackets after ≈: the same amount, converted by molar mass.
Organism: Candida albicans

SMILES = CC(C)[C@H](NC(=O)OCc1ccccc1)C(=O)N(C)[C@@H](Cc1ccc(OC(C)(C)C)cc1)C(=O)Nc1ccccc1C(=O)N[C@@H](C)C(=O)O; assay = potentiator, broth microdilution; system = ATCC 90029; setting = 32.0 µg/mL, together with: amphotericin B; how to read = baseline: amphotericin B alone; endpoint = fold potentiation; value = 32
SMILES = N=C(N)NCCC[C@@H]1NC(=O)[C@H](CCCNC(=N)N)NC(=O)[C@@H](C(c2ccccc2)c2ccccc2)NC(=O)[C@H](Cc2c[nH]c3ccccc23)NC(=O)[C@@H](C(c2ccccc2)c2ccccc2)NC(=O)[C@@H](CCCNC(=N)N)NC(=O)[C@@H](CCCNC(=N)N)NC1=O; system = ATCC 60193; setting = 4 x MIC, 8 h; endpoint = reduction of viable cells; value = > 85%
SMILES = COC(=O)[C@H](C)NC(=O)c1ccccc1NC(=O)[C@H](Cc1ccc(OC(C)(C)C)cc1)N(C)C(=O)[C@@H](NC(=O)OCc1ccccc1)C(C)C; assay = potentiator, broth microdilution; system = ATCC 90029; setting = 32.0 µg/mL, together with: amphotericin B; how to read = baseline: amphotericin B alone; endpoint = fold potentiation; value = 32
SMILES = CC[C@H]1OC(=O)[C@H](C)C(=O)[C@H](C)[C@@H](O[C@@H]2O[C@H](C)C[C@H](N(C)C)[C@H]2O)[C@](C)(OC)C[C@@H](C)C(=O)[C@H](C)[C@H]2N(CCCCn3cnc(-c4cccnc4)c3)C(=O)O[C@]12C; assay = microbial growth; system = ATCC90028; endpoint = MIC; value = > 32 µg/mL
SMILES = O=C(NCC(O)(Cn1cncn1)c1ccc(F)cc1F)[c-]1cccc1.[Cl-].[Co+3].c1cc[cH-]c1 (racemic); assay = EUCAST; system = SC5314; setting = 48 h; endpoint = MIC50; value = 100 µM
SMILES = COC(=O)c1cnc(-c2cnccn2)cc1C(=O)OC.COC(=O)c1cnc(-c2cnccn2)cc1C(=O)OC.F[P-](F)(F)(F)(F)F.[Ag+]; assay = biofilm formation, crystal violet staining; system = ATCC 10231; setting = 1.75 µg/mL; endpoint = inhibition; value = 51 ± 7%
SMILES = Oc1cccc2c1[nH]c1c(C3=CC4(O)CCC=CCCCCN5CCC3C3(CC6C=CCCCCN6C43)C5)nccc12 (single isomer, unassigned; (+)); assay = growth; system = ATCC 90028; endpoint = IC50; value = 2.67 ± 0.06 µg/mL (≈ 4.73 µM)
SMILES = N=C(N)NCCC[C@@H]1NC(=O)[C@H](CCCNC(=N)N)NC(=O)[C@@H](CCCNC(=N)N)NC(=O)[C@H](C(c2ccccc2)c2ccccc2)NC(=O)[C@H](C(c2ccccc2)c2ccccc2)NC(=O)[C@H](C(c2ccccc2)c2ccccc2)NC(=O)[C@H](CCCNC(=N)N)NC1=O; system = CA3; endpoint = MIC; value = 16 µg/mL (≈ 12.4 µM)

Some of these lines once more:
SMILES = N=C(N)NCCC[C@@H]1NC(=O)[C@H](CCCNC(=N)N)NC(=O)[C@@H](C(c2ccccc2)c2ccccc2)NC(=O)[C@H](Cc2c[nH]c3ccccc23)NC(=O)[C@@H](C(c2ccccc2)c2ccccc2)NC(=O)[C@@H](CCCNC(=N)N)NC(=O)[C@@H](CCCNC(=N)N)NC1=O; system = ATCC 60193; setting = 4 x MIC, 8 h; endpoint = reduction of viable cells; value = > 85%
